Assay results of several laboratories.
Parts stem from different laboratories: compare values within a part only. Positions count from the first letter of the parent shown.

Sample 1 — technique: DHFR PCA, deep sequencing; matrix: yeast; added: (+)-ABA 0.11 µM; reference: wild-type fitted maximum; direction: higher = stronger binding
Target: ABI1, truncated, D143A, DHFR fusion (Arabidopsis thaliana)
Notes: methotrexate growth selection, single substitutions
Starting sequence: PYL1, truncated, DHFR fusion (Arabidopsis thaliana); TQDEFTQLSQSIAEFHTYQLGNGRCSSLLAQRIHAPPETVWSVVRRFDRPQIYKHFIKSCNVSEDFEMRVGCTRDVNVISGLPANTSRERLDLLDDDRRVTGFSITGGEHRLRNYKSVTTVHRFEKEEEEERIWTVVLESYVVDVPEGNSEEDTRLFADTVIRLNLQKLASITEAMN
Substitution | relative binding score [%]
D75R | 14.8
S9Q | 57.5
L93I | 74.7
V70F | -5.79
D95M | -7.03
I162S | 5.64
S117I | 7.1
F56Q | -6.51

Sample 2 — technique: RNA Bind-n-Seq; form: RNA; matrix: in vitro; tested at: 200 nM; notes: whole 134-nt RNA, ends assumed; added: 150 mM KCl; reference: input library; direction: higher = stronger binding
Target: Fragile X messenger ribonucleoprotein 1, C-terminal low-complexity region (Fmr1, Mus musculus, UniProt P35922)
Constant ends, left off below: GGGAGUUCUACAGUCCGACGAUC … UGGAAUUCUCGGGUGUCAAGG
Oligonucleotide | log2 enrichment
CCUGUGCUACACAUCGUAUGUACCGAAUCGGGUUUUUUGGGGUUUUUUGGUUUUUUGGGGAAAGUAUUAUGUUACGCCGUUCGGAUCUGC | -0.363
UCCUGUGCUACACAUCGUAUGUACCGAAUCGGGGAAAAAGGGGAAAAAGGAAAAAGGGGAAAGUAUUAUGUUACGCCGUUCGGAUCUGCA | 0.00718
AAGUCCUGUGCUACACAUCGUAUGUACCGAAUCGGUUUUUGGUUUGGUUUUUUUGGAAAGUAUUAUGUUACGCCGUUCGGAUCUGCACUU | -0.908
AAGUCCUGUGCUACACAUCGUAUGUACCGAAUCGGGAAAGGGUUUUUGGGUUUGGGAAAGUAUUAUGUUACGCCGUUCGGAUCUGCACUU | 0.619
UGUGCUACACAUCGUAUGUACCGAAUCGGGGAAAAAAAGGGGAAAAAAAGGGGAAAAAAAGGGAAAGUAUUAUGUUACGCCGUUCGGAUC | -0.112
CCUGUGCUACACAUCGUAUGUACCGAAUCGGUUUUUUUGGGUUUUUUUGGGUUUUUUUGGAAAGUAUUAUGUUACGCCGUUCGGAUCUGC | -0.291
UGGCCCUGGUGGCAUGCGGGGAGGAAGAGGUGGCCUCAUGGAUCGUGGUGGUCCCGGUGGAAUGUUCAGAGAUGGCCGUGGUGGAGACAG | 0.223
GUCCUGUGCUACACAUCGUAUGUACCGAAUCGGGAGGGUUUUUUUGGGUUUUUUUGGGAAAGUAUUAUGUUACGCCGUUCGGAUCUGCAC | 0.0877

Sample 3 — technique: competition protein-binding microarray; form: double-stranded DNA, one strand shown; matrix: in vitro; tested at: 2 µM; added: Cbf1 competitor, 0.05 µM; direction: higher = stronger binding; constant ends, left off below: … GTCTTGATTCGCTTGACGCTGCTG
Target: Phosphate system positive regulatory protein PHO4, full length, GST-tagged (PHO4, Saccharomyces cerevisiae, UniProt P07270, residues 1-312)
Notes: whole 60-bp probe, lowest competitor level
Target sequence (chain): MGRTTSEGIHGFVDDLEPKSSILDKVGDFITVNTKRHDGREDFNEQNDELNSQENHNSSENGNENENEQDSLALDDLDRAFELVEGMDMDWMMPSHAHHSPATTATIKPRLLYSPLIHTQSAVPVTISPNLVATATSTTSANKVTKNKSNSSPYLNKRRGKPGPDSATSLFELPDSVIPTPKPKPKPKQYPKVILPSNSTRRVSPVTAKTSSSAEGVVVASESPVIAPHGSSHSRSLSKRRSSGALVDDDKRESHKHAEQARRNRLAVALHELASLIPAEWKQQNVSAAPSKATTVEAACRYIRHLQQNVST
Oligonucleotide | fluorescence intensity
TGCGCAACAACTTGCGATGTGGGTGTATGTCTAGAA | 5280 a.u.
CGGGGTTAAGTTTGATATGTGGGTGGCTTGCAGCAG | 4740 a.u.
CTTTCCCGATCTTGGCACGTGGGTGTAGCACATTTG | 18700 a.u.
CTAACGAAGGTTTGTCAAGTGGGTGACAAGCCAAGT | 3420 a.u.
AATGATCTTGTTTCTCATGTGGGTTCTGACTGGAGC | 5710 a.u.
TGCGGGTACTTTGAGAGCGTGTCCTAACTTTGGCTT | 8060 a.u.
TCCTTCTTTATCCCACTCATGACAATCTGCAATATA | 4880 a.u.
AAGGTATTGATAACCTGCGTGACGGTCTGGTGGAAT | 6550 a.u.

Sample 4 — target: inorganic phosphate, free oxyanion; technique: microfluidic competitive inhibition; matrix: in vitro, cell-free expressed; tested at: not given; direction: lower = stronger binding
Notes: derived from inhibition constants, unchanged parent 615000 nM
Starting sequence: PafA, mature enzyme, eGFP fusion (Elizabethkingia meningoseptica, UniProt Q9KJX5); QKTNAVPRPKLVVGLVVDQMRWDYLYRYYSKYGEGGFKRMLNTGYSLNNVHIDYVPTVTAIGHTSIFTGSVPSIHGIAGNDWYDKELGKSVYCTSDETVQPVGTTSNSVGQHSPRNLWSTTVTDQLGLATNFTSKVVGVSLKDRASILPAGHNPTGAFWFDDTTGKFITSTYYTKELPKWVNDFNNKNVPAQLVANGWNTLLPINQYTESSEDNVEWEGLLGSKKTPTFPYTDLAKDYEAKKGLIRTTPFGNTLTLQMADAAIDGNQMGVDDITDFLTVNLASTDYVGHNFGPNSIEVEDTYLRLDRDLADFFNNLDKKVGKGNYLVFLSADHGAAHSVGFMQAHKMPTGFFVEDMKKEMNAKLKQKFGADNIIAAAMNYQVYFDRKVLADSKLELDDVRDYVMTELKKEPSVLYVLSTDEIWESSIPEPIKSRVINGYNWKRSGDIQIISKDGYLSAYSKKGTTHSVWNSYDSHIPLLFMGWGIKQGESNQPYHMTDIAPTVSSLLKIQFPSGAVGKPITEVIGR
Substitution | phosphate dissociation constant
L41G | 466 µM
D308G | 595 µM
T68G | 173 µM
I66G | 373 µM
S513G | 361 µM
T464V | 558 µM
W441V | 442 µM
Q510G | 466 µM
E424G | 739 µM
E359G | 557 µM
M481G | 587 µM
T3G | 633 µM
T226V | 675 µM
V435A | 678 µM
T255V | 612 µM
M258G | 485 µM
D453V | 314 µM
N4G | 483 µM
D453G | 568 µM
Q381G | 561 µM
D162G | 1070 µM
Y455V | 627 µM
Y26G | 343 µM
A282G | 1010 µM
N491V | 607 µM

Sample 5 — target: CCNE2, cyclin fold, Cln2 fusion (human); technique: yeast growth competition, sequencing; matrix: yeast; notes: strong parent motif; reference: not given; direction: higher = stronger binding; starting sequence: viral docking peptide; KKAKRRLFTISDS
Substitution | normalised enrichment score
KKAKARLFTISDS [R5A] | 1.27
KKAARRLFTISDS [K4A] | 1.04
KKAKRRAFTISDS [L7A] | 0.148
KKAKRRLFTISDA [S13A] | 2.47
KKAKARAFTISDS [R5A L7A] | 0.113

Mixed results
Compound | cell line | setting | measurement | value
CC[C@]12C=CCN3CC[C@]4(C(=C(C(=O)OC)C1)Nc1ccccc14)[C@@H]32 | A-375 | 100 µM, 36 h | viability | 11.2%
